Experimental data from different studies.
Lines come from different studies, so protocols differ.
Organism: Escherichia coli

SMILES	test	test system	conditions	MIC
CC(C)C[C@@H](NC(=O)[C@@H](CCCNC(=N)N)NC(=O)[C@H](N)CCCNC(=N)N)C(=O)N[C@H](CC(C)C)C(=O)N[C@H](CCCNC(=N)N)C(=O)N[C@H](CCCCN)C(=O)N[C@H](CC(C)C)C(=O)N[C@H](CCCCN)C(=O)NCC(=O)N[C@H](CCCCN)C(=O)N[C@H](CCCCN)C(=O)N[C@H](CC(C)C)C(=O)N[C@H](Cc1ccc(O)cc1)C(=O)N[C@H](CC(C)C)C(=O)N[C@H](Cc1ccc(O)cc1)C(=O)N[C@H](Cc1ccccc1)C(=O)N[C@H](CCCCN)C(=O)N[C@H](CC(C)C)C(=O)N[C@H](CCC(N)=O)C(=O)N[C@H](CC(C)C)C(=O)N[C@H](CC(C)C)C(=O)N[C@H](CCCCN)C(=O)N[C@H](CCCCN)C(N)=O	broth microdilution	KCTC 1682, Mueller-Hinton broth	no added salt	4 µM
COc1c(NC(=O)c2ccc(NC(=O)[C@H](CC#N)NC(=O)c3ccc(NC(=O)/C(C)=C/c4ccc(O)cc4)cc3)c(OC)c2O)ccc(C(=O)Nc2ccc(C(=O)O)cc2)c1O	–	–	–	0.002 µg/mL
CC(C)C[C@H](NC(=O)[C@H](CCCCN)NC(=O)C1CCCC=CCCC(NC(=O)[C@H](CCCCN)NC(=O)[C@@H](N)CC(C)C)C(=O)N[C@@H](CCCCN)C(=O)NC2CCC=CCCCC(NC(=O)[C@H](CCCCN)NC(=O)CNC(=O)[C@H]3CCCN3C(=O)[C@H](CCCCN)NC2=O)C(=O)N[C@@H](CCCCN)C(=O)N1)C(N)=O (stereo partly shown)	broth microdilution	ATCC 25922, Mueller-Hinton broth	18 h, 37 °C	64 µM
CC[C@H](C)[C@H](NC(=O)[C@@H](CCCNC(=N)N)NC(=O)[C@H](CCCNC(=N)N)NC(=O)[C@H](CC(C)C)NC(=O)[C@H](Cc1c[nH]c2ccccc12)NC(=O)[C@H](CCCNC(=N)N)NC(=O)[C@@H]1CCCN1C(=O)[C@H](CCCNC(=N)N)NC(=O)[C@@H]1CCCN1C(=O)[C@H](CC(C)C)NC(=O)[C@H](Cc1ccc(O)cc1)NC(=O)[C@@H]1CCCN1C(=O)[C@@H]1CCCN1C(=O)[C@H](CCCCN)NC(=O)[C@H](CC(=O)O)NC(=O)[C@@H](N)C(C)C)C(=O)N[C@@H](Cc1ccc(O)cc1)C(=O)N[C@@H](CC(N)=O)C(=O)N[C@H](CCCNC(=N)N)C(N)=O	broth microdilution	BW25113	18 h, 37 °C, 25% MHB2	32 µg/mL
CC(CS)C(=O)N1CCCC1C(=O)O (stereo not shown)	–	NDM-1 producing	compound alone	> 2000 µM
OB(O)c1cnn(-c2cccc(Cl)c2)c1	bacterial growth	TEM-3 ESBL clinical isolate	without cefotaxime	> 2050 µg/mL
CC[C@H](C)[C@H](NC(=O)[C@@H](CCCNC(=N)N)NC(=O)[C@H](CCCNC(=N)N)NC(=O)[C@@H]1CCCN1C(=O)[C@@H]1CCCN1C(=O)[C@H](CCCNC(=N)N)NC(=O)[C@@H]1CCCN1C(=O)[C@H](CCCNC(=N)N)NC(=O)[C@@H]1CCCN1C(=O)[C@H](CC(C)C)NC(=O)[C@H](Cc1ccc(O)cc1)NC(=O)[C@@H]1CCCN1C(=O)[C@@H]1CCCN1C(=O)[C@H](CCCCN)NC(=O)[C@H](Cc1c[nH]c2ccccc12)NC(=O)[C@@H](N)C(C)C)C(=O)N[C@@H](Cc1ccc(O)cc1)C(=O)N[C@@H](CC(N)=O)C(=O)N[C@H](CCCNC(=N)N)C(N)=O	broth microdilution	ATCC 25922	18 h, 37 °C, 25% MHB2	8 µg/mL
CCCCCCCC(=O)N[C@@H](CCN)C(=O)N[C@H](C(=O)N[C@@H](CCN)C(=O)N[C@H]1CCNC(=O)[C@H]([C@@H](C)O)NC(=O)[C@H](CCN)NC(=O)[C@H](CCN)NC(=O)[C@H](CC(C)C)NC(=O)[C@@H](Cc2ccc(F)cc2)NC(=O)[C@H](CCN)NC1=O)[C@@H](C)O	broth microdilution	ATCC 25922, colistin-susceptible	–	0.03 to 0.06 µg/mL
CC[C@H](C)[C@H](NC(=O)[C@H](CCCNC(=N)N)NC(=O)[C@H]1CCCN1C(=O)[C@H](Cc1ccc(O)cc1)NC(=O)[C@@H](NC(=O)[C@@H](NC(=O)[C@H](CCCNC(=N)N)NC(=O)[C@H](Cc1ccccc1)NC(=O)[C@@H](NC(=O)[C@H](Cc1c[nH]c2ccccc12)NC(=O)[C@H](Cc1c[nH]c2ccccc12)NC(=O)c1ccccc1)C(C)C)C(C)C)C(C)C)C(=O)N[C@H](C(=O)N[C@@H](Cc1ccc(O)cc1)C(=O)N[C@H](C(=O)N[C@@H](CCCNC(=N)N)C(=O)N[C@@H](CCCNC(=N)N)C(=O)N[C@@H](CCCNC(=N)N)C(=O)N[C@@H](Cc1c[nH]c2ccccc12)C(=O)N[C@H](C(=O)NCC(=O)N1CCC[C@H]1C(=O)N[C@@H](CCCCN)C(=O)N[C@@H](CCCCN)C(N)=O)[C@@H](C)O)C(C)C)C(C)C	bacterial growth, broth dilution, OD600	DH5α, LB medium	16 h, 37 °C	100 µM
CCCCCCCCCCCC(=O)C(C)C(=O)N1CCC[C@H]1C(=O)NC(C)(C)C(=O)NC(C)(C)C(=O)NC(C)(C)C(=O)N[C@](C)(CC)C(=O)NCCC(=O)N[C@@H](C)C(=O)N[C@](C)(CC)C(=O)N[C@@H](C)C(=O)N[C@@H](CC(C)C)C(=O)N[C@](C)(CC)C(=O)NCCC(=O)N[C@@H](C)C(=O)N[C@](C)(CC)C(=O)NCCC(=O)N[C@@H](C)C(=O)NC(C)(C)C(=O)NC(C)(C)C(=O)NC(C)(C)C(=O)N[C@@H](C)C(=O)N[C@@H](CC(=O)O)C(=O)O (stereo partly shown)	–	BW25113	–	> 128 µg/mL
CC[C@H](C)[C@H](NC(=O)[C@@H](CCCNC(=N)N)NC(=O)[C@H](CCCNC(=N)N)NC(=O)[C@@H]1CCCN1C(=O)[C@@H]1CCCN1C(=O)[C@H](CCCNC(=N)N)NC(=O)[C@@H]1CCCN1C(=O)[C@H](CCCNC(=N)N)NC(=O)[C@@H]1CCCN1C(=O)[C@H](CC(C)C)NC(=O)[C@H](Cc1ccc(O)cc1)NC(=O)[C@@H]1CCCN1C(=O)[C@@H]1CCCN1C(=O)[C@H](CCCCN)NC(=O)[C@H](CC(=O)O)NC(=O)[C@@H](N)C(C)C)C(=O)N[C@@H](Cc1ccc(O)c([N+](=O)[O-])c1)C(=O)N[C@@H](CC(N)=O)C(=O)N[C@H](CCCNC(=N)N)C(N)=O	broth microdilution	BW25113	18 h, 37 °C, 25% MHB2	8 µg/mL
CC(C)C[C@@H](NC(=O)[C@H](NC(=O)[C@@H](CCCCN)NC(=O)[C@@H](CCCCN)NC(=O)[C@@H](CC(C)C)NC(=O)[C@@H](Cc1c[nH]c2ccccc12)NC(=O)[C@@H](CCCCN)NC(=O)[C@@H](CC(C)C)NC(=O)[C@@H](CC(C)C)NC(=O)[C@@H](CCCCN)NC(=O)[C@@H](CCCCN)NC(=O)[C@H](N)C(C)C)C(C)C)C(N)=O	–	–	24 h, 37 °C, Mueller-Hinton broth, KCl 4.5 mM	8 µM
CC[C@H](C)[C@H](NC(=O)[C@@H](CCCNC(=N)N)NC(=O)[C@H](CCCNC(=N)N)NC(=O)[C@@H]1CCCN1C(=O)[C@@H]1CCCN1C(=O)[C@H](CCCNC(=N)N)NC(=O)[C@@H]1CCCN1C(=O)[C@H](CCCNC(=N)N)NC(=O)[C@@H]1CCCN1C(=O)[C@H](CC(C)C)NC(=O)[C@H](Cc1ccc(O)cc1)NC(=O)[C@@H]1CCCN1C(=O)[C@@H]1CCCN1C(=O)[C@H](CCCCN)NC(=O)[C@H](CC(=O)O)NC(=O)[C@@H](N)C(C)C)C(=O)N[C@@H](Cc1cc(I)c(O)c(I)c1)C(=O)N[C@@H](CC(N)=O)C(=O)N[C@H](CCCNC(=N)N)C(N)=O	broth microdilution	MC4100	18 h, 37 °C, 25% MHB2	8 µg/mL
CC[C@H](C)[C@H](NC(=O)[C@@H](NC(=O)[C@H](C)NC(=O)[C@@H](NC(=O)[C@H](C)NC(=O)[C@@H]1CCCN1C(=O)CNC(=O)[C@H](C)NC(=O)[C@H](CC(N)=O)NC(=O)[C@H](CCCCN)NC(=O)[C@@H](NC(=O)[C@H](C)NC(=O)[C@H](CC(N)=O)NC(=O)[C@H](CCCNC(=N)N)NC(=O)[C@@H](NC(=O)[C@H](CCCNC(=N)N)NC(=O)[C@H](CCCNC(=N)N)NC(=O)[C@@H](NC(=O)[C@@H](NC(=O)[C@H](CCCCN)NC(=O)[C@H](CCC(=O)O)NC(=O)[C@H](CC(C)C)NC(=O)[C@H](CCCCN)NC(=O)[C@H](CCCCN)NC(=O)[C@H](CC(C)C)NC(=O)[C@@H]1CCCN1C(=O)[C@H](CCCCN)NC(=O)[C@H](Cc1c[nH]c2ccccc12)NC(=O)[C@@H](N)CCCNC(=N)N)C(C)C)C(C)C)C(C)C)C(C)C)C(C)C)C(C)C)C(=O)NCC(=O)N[C@@H](CC(=O)O)C(=O)O	broth microdilution	K88, Mueller-Hinton broth	37 °C	4.39 µg/mL
CCn1c(-c2ccc(-c3ccc(F)cc3)cc2)c(-c2ccc(-c3ccc(F)cc3)cc2)n(CC)c1=[Se]	broth microdilution	carbapenem-resistant BAA-2140	24 h	> 40 µM
CC[C@H](C)[C@H](NC(=O)[C@@H](NC(=O)[C@H](CCCCN)NC(=O)[C@H](CCCCN)NC(=O)[C@@H](NC(=O)[C@H](Cc1c[nH]c2ccccc12)NC(=O)[C@H](CCCCN)NC(=O)[C@@H](NC(=O)[C@H](CC(C)C)NC(=O)[C@H](CCCCN)NC(=O)[C@H](CCCCN)NC(=O)[C@@H](N)C(C)C)[C@@H](C)CC)[C@@H](C)CC)C(C)C)C(N)=O	–	–	24 h, 37 °C, Mueller-Hinton broth, NH4Cl 6 µM	32 µM
CC[C@H](C)[C@H](NC(=O)[C@@H](CCCNC(=N)N)NC(=O)[C@H](CCCNC(=N)N)NC(=O)[C@@H]1CCCN1C(=O)[C@@H]1CCCN1C(=O)[C@H](CCCNC(=N)N)NC(=O)[C@@H]1CCCN1C(=O)[C@H](CCCNC(=N)N)NC(=O)[C@@H]1CCCN1C(=O)[C@H](CC(C)C)NC(=O)[C@H](Cc1ccc(O)cc1)NC(=O)[C@H](Cc1ccc(O)cc1)NC(=O)[C@@H]1CCCN1C(=O)[C@H](CCCCN)NC(=O)[C@H](CC(=O)O)NC(=O)[C@@H](N)C(C)C)C(=O)N[C@@H](Cc1ccc(O)cc1)C(=O)N[C@@H](CC(N)=O)C(=O)N[C@H](CCCNC(=N)N)C(N)=O	broth microdilution	ATCC 25922	18 h, 37 °C, 25% MHB2	32 µg/mL
CC[C@H](C)[C@H](NC(=O)CN)C(=O)NCC(=O)N[C@@H](C)C(=O)N[C@H](C(=O)N[C@@H](CC(C)C)C(=O)N[C@@H](CCCCN)C(=O)N[C@H](C(=O)N[C@@H](CC(C)C)C(=O)N[C@H](C(=O)N[C@H](C(=O)NCC(=O)N[C@@H](CC(C)C)C(=O)N1CCC[C@H]1C(=O)N[C@@H](C)C(=O)N[C@@H](CC(C)C)C(=O)N[C@H](C(=O)N[C@@H](CO)C(=O)N[C@@H](Cc1c[nH]c2ccccc12)C(=O)N[C@H](C(=O)N[C@@H](CCCCN)C(=O)N[C@@H](CCCNC(=N)N)C(=O)N[C@@H](CCCCN)C(=O)N[C@@H](CCCNC(=N)N)C(=O)N[C@@H](CCC(N)=O)C(=O)N[C@@H](CCC(N)=O)C(N)=O)[C@@H](C)CC)[C@@H](C)CC)[C@@H](C)O)[C@@H](C)O)C(C)C)C(C)C	broth microdilution	CCARM 1238 resistant	18 h, 37 °C	2 µM
CC(C)(O/N=C(\C(=O)N[C@@H]1C(=O)N(OS(=O)(=O)O)C1(C)C)c1nsc(N)n1)C(=O)O	agar dilution	08-85, mcr-1	–	32 µg/mL

Repeated from above:
SMILES	test	test system	conditions	MIC
CC[C@H](C)[C@H](NC(=O)[C@@H](CCCNC(=N)N)NC(=O)[C@H](CCCNC(=N)N)NC(=O)[C@@H]1CCCN1C(=O)[C@@H]1CCCN1C(=O)[C@H](CCCNC(=N)N)NC(=O)[C@@H]1CCCN1C(=O)[C@H](CCCNC(=N)N)NC(=O)[C@@H]1CCCN1C(=O)[C@H](CC(C)C)NC(=O)[C@H](Cc1ccc(O)cc1)NC(=O)[C@@H]1CCCN1C(=O)[C@@H]1CCCN1C(=O)[C@H](CCCCN)NC(=O)[C@H](CC(=O)O)NC(=O)[C@@H](N)C(C)C)C(=O)N[C@@H](Cc1cc(I)c(O)c(I)c1)C(=O)N[C@@H](CC(N)=O)C(=O)N[C@H](CCCNC(=N)N)C(N)=O	broth microdilution	MC4100	18 h, 37 °C, 25% MHB2	8 µg/mL
CC(C)C[C@H](NC(=O)[C@H](CCCCN)NC(=O)C1CCCC=CCCC(NC(=O)[C@H](CCCCN)NC(=O)[C@@H](N)CC(C)C)C(=O)N[C@@H](CCCCN)C(=O)NC2CCC=CCCCC(NC(=O)[C@H](CCCCN)NC(=O)CNC(=O)[C@H]3CCCN3C(=O)[C@H](CCCCN)NC2=O)C(=O)N[C@@H](CCCCN)C(=O)N1)C(N)=O (stereo partly shown)	broth microdilution	ATCC 25922, Mueller-Hinton broth	18 h, 37 °C	64 µM
CC[C@H](C)[C@H](NC(=O)[C@@H](CCCNC(=N)N)NC(=O)[C@H](CCCNC(=N)N)NC(=O)[C@@H]1CCCN1C(=O)[C@@H]1CCCN1C(=O)[C@H](CCCNC(=N)N)NC(=O)[C@@H]1CCCN1C(=O)[C@H](CCCNC(=N)N)NC(=O)[C@@H]1CCCN1C(=O)[C@H](CC(C)C)NC(=O)[C@H](Cc1ccc(O)cc1)NC(=O)[C@@H]1CCCN1C(=O)[C@@H]1CCCN1C(=O)[C@H](CCCCN)NC(=O)[C@H](Cc1c[nH]c2ccccc12)NC(=O)[C@@H](N)C(C)C)C(=O)N[C@@H](Cc1ccc(O)cc1)C(=O)N[C@@H](CC(N)=O)C(=O)N[C@H](CCCNC(=N)N)C(N)=O	broth microdilution	ATCC 25922	18 h, 37 °C, 25% MHB2	8 µg/mL
